Assay results of several laboratories.
Compare with care: the assays were run in different laboratories. Values joined by “and” are separate records of one study, mostly repeats; a detail may differ. ± marks the error that the study gave.
ALB: Albumin (ALB, Homo sapiens, UniProt P02768)
uncharacterized protein: uncharacterized protein (Spodoptera exigua, UniProt F1CEY0)
KRAS G12D GDP-bound: GTPase KRas, GDP-bound (KRAS, Homo sapiens, UniProt P01116, G12D)
T1: RNA aptamer; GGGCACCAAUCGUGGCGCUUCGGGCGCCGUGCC

SMILES | target | test | test system | setting | scale | endpoint | value
Cc1cc(-c2ccnc3[nH]cc(F)c23)cc(F)c1[C@@]1(O)[C@H](C)CN(C(=O)CN)C[C@@H]1C | Tyrosine-protein kinase JAK1 (JAK1, Homo sapiens, UniProt P23458) | ATP/ADP probe binding, KiNativ | HEK293T lysate | 0.1 µM, activation loop domain 1 | – | probe labelling inhibition | 0.6%
O=C(NO)c1ccc(CN2CCCCc3ccccc32)c(F)c1 | Histamine H2 receptor (HRH2, Homo sapiens, UniProt P25021) | radioligand binding, radioligand displacement | – | 10 µM | – | inhibition | -9.17%
O=c1cc(CO)occ1[O-].[Cl-].[W+4].c1cc[cH-]c1.c1cc[cH-]c1 | ALB | binding, van't Hoff fluorescence quenching | – | concentration not given | – | enthalpy change | -6.07 kJ/mol
Nc1nc2c(ncn2[C@@H]2O[C@H](COP(=O)(O)O)[C@@H](O)[C@H]2O)c(=O)[nH]1 | GUK1 (Homo sapiens, UniProt Q16774, D103A) | enzyme activity, NADH-coupled | – | 1000 µM | – | reaction rate | 14 s⁻¹ and 15 s⁻¹ and 14.9 s⁻¹
O=C(Nc1cccnn1)N1CCC(=Cc2cccc(Oc3ccc(C(F)(F)F)cn3)c2)CC1 | human off-target panel | – | – | 50 µM | – | number of off-targets hit | 37
CCN(CCO)CCCC(C)Nc1ccnc2cc(Cl)ccc12 (stereo not drawn) | Sodium channel protein type 5 subunit alpha (SCN5A, Homo sapiens, UniProt Q14524) | sodium current | – | 300 µM | – | activation V1/2 | -47.7 ± 3.6 mV
CCCCCCCOC(C)=O | uncharacterized protein | binding, competitor, fluorescence displacement | – | 20 µM, pH 7.4, added: 1-NPN 20 µM | reference: 1-NPN alone | relative fluorescence | 59.1%
[H]/N=C(/N)NCC(=O)O | Sodium- and chloride-dependent taurine transporter (SLC6A6, Homo sapiens, UniProt P31641, G62A) | binding, microscale thermophoresis | – | 250 µM, room temperature, added: 50 nM labelled protein | higher = more binding | normalised MST signal | 0.0364
C1CCCC1.C1CCCC1.[Cl][W][Cl] | ALB | fluorescence quenching | – | 288 K | – | Stern-Volmer quenching constant | 4040 L/mol
COc1cc(-c2[o+]c3cc(O)cc(O)c3cc2O[C@@H]2O[C@H](CO)[C@@H](O)[C@H](O)[C@H]2O)ccc1O | ALB | van't Hoff analysis | – | concentration not given | – | binding enthalpy change | -25.1 kJ/mol
c1coc(-c2n[nH]cc2-c2ccnc3ccccc23)c1 | Carbon catabolite-derepressing protein kinase (SNF1, Candida albicans, UniProt P52497) | kinase binding, MIB/MS competition | Candida albicans lysate | 1 µM | reference: DMSO, negative = stronger binding | log2 fold change | -0.17
NCCS(=O)(=O)O | Sodium- and chloride-dependent taurine transporter (SLC6A6, Homo sapiens, UniProt P31641, S402A) | binding, microscale thermophoresis | – | 125 µM, room temperature, added: 50 nM labelled protein | higher = more binding | normalised MST signal | 0.0341
[O-][S+]1CCCCS1 (stereo not drawn) | Superoxide dismutase [Cu-Zn] (SOD1, Homo sapiens, UniProt P00441, G94A) | intact protein LC-MS | SOD1 G93A transgenic mice, whole blood | intravenous, 10 mg/kg, 1 h, mean of two mice | – | target engagement | 61.8%
CN(CCO)c1ccc(/C=C(\C#N)c2ccc(C#N)cc2)cc1 | T1, RNA aptamer | fluorescence titration | – | – | – | binding | no binding
Cc1cccc(C(=O)Nc2nc3ccccc3[nH]2)c1 | Adenosine receptor A2a (ADORA2A, Homo sapiens, UniProt P29274) | binding, radioligand competition | – | 10 µM, added: [3H]ZM241385 | – | displacement | 6 ± 3%
CC(C)C[C@H](N)C(=O)Nc1ccc2ccccc2c1 | Puromycin-sensitive aminopeptidase (Rattus norvegicus, UniProt F1M9V7) | substrate | – | MW 100 kDa | – | kcat | 72.3 s⁻¹
Nc1ncnc2c1ncn2[C@@H]1O[C@H](CO[P@](=O)(O)O[P@](=O)(O)O[P@@](=O)(O)S)[C@@H](O)[C@H]1O | GUK1 (Homo sapiens, UniProt Q16774) | ITC | – | concentration not given, added: ADP | – | ΔG of binding | -24.9 kJ/mol and -25 kJ/mol and -25.1 kJ/mol
O=C(O)c1ccc(Nc2ncc3c(n2)-c2ccc(Cl)cc2C(c2c(F)cccc2F)=NC3)cc1 | SGK(h) | kinase activity | – | 1 µM | – | remaining activity | 99%

SMILES | target | test | test system | setting | scale | endpoint | value
C=C1C(=O)O[C@@H]2C[C@@]3(C)CCCC(=C)[C@@H]3C[C@H]12 | Retinoic acid receptor RXR-alpha (RXRA, Homo sapiens, UniProt P19793) | reporter gene, Gal4 hybrid reporter | – | 10 µM | reference: vehicle | activation | 0.74 fold
CNC(=O)[C@@]12C[C@@H]1[C@@H](n1cnc3c(NCCc4ccc(O)c(OC)c4)nc(C#Cc4ccc(Cl)s4)nc31)[C@H](O)[C@@H]2O | Adenosine receptor A3 (ADORA3, Homo sapiens, UniProt P0DMS8) | β-arrestin 2 recruitment, agonist, NanoBiT | HEK293T | – | reference: reference agonist | Emax | 69.7%
CCN(CC)c1ccc2c(c1)Oc1cc(N(CC)CC)ccc1C21c2ccccc2C(=O)N1c1ccccc1C(=O)OCOC(=O)C1(C)CC1 | porcine liver esterase | ester hydrolysis | – | added: PLE 1.2 nM | – | Km | ~0.12 µM
C#Cc1c(F)ccc2cc(O)cc(-c3ncc4c(N5CC6CCC(C5)N6)nc(OC[C@@]56CCCN5C[C@H](F)C6)nc4c3F)c12 | GTPase KRas, GppNHp-bound (KRAS, Homo sapiens, UniProt P01116, A146T) | binding | – | – | – | dissociation rate constant | 0.00494 ± 0.00098 s⁻¹
Cc1cc(C(=O)NC[C@@H](N)C(=O)O)sc1-c1ccccc1Br | Glutamate receptor ionotropic, NMDA 1, with GluN2C (Grin1, Rattus norvegicus, UniProt P35439) | – | – | added: glutamate 300 µM | – | Hill slope | 1.39
CC1(F)CN(C(=O)Cn2c(=O)c(C(=O)NCc3ccc(Cl)cc3)cc3nc(N4CCN(CC(=O)O)C4=O)cnc32)C1 | DNA polymerase catalytic subunit (Human cytomegalovirus, UniProt P08546) | enzyme activity, inhibitor | – | retest | – | Hill slope | 1.1
Nc1ncnc2c1ncn2[C@@H]1O[C@H](COP(=O)(O)CP(=O)(O)OP(=O)(O)O)[C@@H](O)[C@H]1O | P2X purinoceptor 1 (P2RX1, Homo sapiens, UniProt P51575, R139P) | saturation binding | HEK293 | 52 nM | – | specific binding | 963 CCPM and 916 CCPM
CCCCCCCCCCCCCCCCCCc1ccc(O)cc1 | ALB | binding, fluorescence quenching | – | 37 °C, protein 10 µM | – | Stern-Volmer constant | 8.58 mg/mL
C[C@@H](c1ccc(-n2cnc3c(N)ncnc32)cc1)N1CCc2nn(C)c(Cc3ccccc3)c2C1=O | Tyrosine-protein kinase JAK1, JH2 pseudokinase domain (JAK1, Homo sapiens, UniProt P23458) | KINOMEscan | – | 0.1 µM | reference: DMSO control | remaining binding | 85%
C=CC(=O)N1CCC(COCC(=O)N2CCN(c3nc(-c4cnc(N)nc4C(F)F)nc(N4CCOC[C@@H]4C)n3)CC2)CC1 | NT-3 growth factor receptor (NTRK3, Homo sapiens, UniProt Q16288) | KINOMEscan | – | 1 µM | – | remaining binding | 36%
NC/C(=C\F)COc1cccc(Cn2c(=S)[nH]c(=O)c3[nH]cnc32)c1 | rat L-type calcium channel | radioligand binding | – | 10 µM, dihydropyridine site | – | inhibition | < 50%
C=C1[C@H]2CC[C@H](C2)C1(C)C | uncharacterized protein | binding, competitor, fluorescence displacement | – | 20 µM, pH 7.4, added: 1-NPN 20 µM | reference: 1-NPN alone | relative fluorescence | 76.5%
CC(C(=O)Nc1c(F)cccc1F)N1CCN(c2ccccc2)CC1 (stereo not drawn) | Short transient receptor potential channel 3 (TRPC3, Homo sapiens, UniProt Q13507) | ion current, GCaMP6 calcium imaging | HEK293 transfected | 20 µM, unit not given, added: 50 µM OAG | reference: control | peak Ca2+ influx | 0.97 ± 0.09
CC[C@H](C)[C@@H]1NC(=O)[C@H](Cc2ccc(O)cc2)NC(=O)[C@H](CC(C)C)NC(=O)[C@@H]2CCCN2C(=O)[C@@H](NC(=O)[C@H](CCCNC(=N)N)NC(=O)[C@H](CCCNC(=N)N)NC(C)=O)CSSC[C@@H](C(=O)N[C@@H](CCCNC(=N)N)C(=O)N[C@@H](CCCNC(=N)N)C(N)=O)NC(=O)[C@H](C(C)C)NC(=O)[C@@H]2CCCN2C(=O)[C@H](CC(=O)O)NC(=O)[C@H](Cc2ccc(O)cc2)NC(=O)[C@H](CO)NC1=O | KRAS G12D GDP-bound | affinity selection mass spectrometry | – | mixture library 2, added: protein titration up to 5 µM | lower is stronger binding | lowest bound protein concentration | 0.08 µM
CC[C@@H]1[C@H](F)C(=O)N[C@@H]1COc1nccc2cc(C(N)=O)c(OC)cc12 | SNF-related serine/threonine-protein kinase (SNRK, Homo sapiens, UniProt Q9NRH2) | ATP-site probe binding, ActivX profiling | THP-1 cell lysate | 0.2 mM, Lys2 site | – | inhibition | 21.5%
OC[C@H]1O[C@@H](Oc2cc3c(O)cc(O)cc3[o+]c2-c2ccc(O)c(O)c2)[C@H](O)[C@@H](O)[C@@H]1O | ALB | van't Hoff analysis | – | concentration not given | – | binding enthalpy change | -14.8 kJ/mol
CC[C@H](C)[C@@H]1NC(=O)[C@H](Cc2ccc(O)cc2)NC(=O)[C@H](CC(C)C)NC(=O)[C@@H]2CCCN2C(=O)[C@@H](NC(=O)[C@H](CCCNC(=N)N)NC(=O)[C@H](CCCNC(=N)N)NC(C)=O)CSSC[C@@H](C(=O)N[C@@H](CCCNC(=N)N)C(=O)N[C@@H](CCCNC(=N)N)C(N)=O)NC(=O)[C@H](C(C)C)NC(=O)[C@@H]2CCCN2C(=O)[C@H](CC(=O)O)NC(=O)[C@H](Cc2cc(F)c(F)c(F)c2)NC(=O)[C@H](Cc2cscn2)NC1=O | KRAS G12D GDP-bound | affinity selection mass spectrometry | – | mixture library 2, added: protein titration up to 5 µM | lower is stronger binding | lowest bound protein concentration | 0.62 µM
Nc1ccc(C(=O)O)cc1 | BEST1, with wild-type BEST1 (Homo sapiens, UniProt O76090, A243T) | whole-cell patch clamp | HEK293 co-expressing WT and A243T mutant | concentration not given, membrane potential 60 mV | – | current density | 23.3 pA/pF and 18.4 pA/pF and 18.7 pA/pF and 15.5 pA/pF and 4.87 pA/pF and 5.81 pA/pF and 19.1 pA/pF

For quick reference, copied from above:
SMILES | target | test | test system | setting | scale | endpoint | value
NC/C(=C\F)COc1cccc(Cn2c(=S)[nH]c(=O)c3[nH]cnc32)c1 | rat L-type calcium channel | radioligand binding | – | 10 µM, dihydropyridine site | – | inhibition | < 50%
OC[C@H]1O[C@@H](Oc2cc3c(O)cc(O)cc3[o+]c2-c2ccc(O)c(O)c2)[C@H](O)[C@@H](O)[C@@H]1O | ALB | van't Hoff analysis | – | concentration not given | – | binding enthalpy change | -14.8 kJ/mol
[H]/N=C(/N)NCC(=O)O | Sodium- and chloride-dependent taurine transporter (SLC6A6, Homo sapiens, UniProt P31641, G62A) | binding, microscale thermophoresis | – | 250 µM, room temperature, added: 50 nM labelled protein | higher = more binding | normalised MST signal | 0.0364
